Measurements from different studies.
Each numbered part is a random draw from the data of one study; scales do not carry over between parts. Substitutions count along the parent as printed.

Sample 1
Target: ABI1, truncated, D143A, DHFR fusion (Arabidopsis thaliana)
Technique: DHFR PCA, deep sequencing
Medium: yeast
Notes: methotrexate growth selection, single substitutions
Together with: (+)-ABA 2500 µM
Baseline: wild-type fitted maximum
Reading: higher = stronger binding
Starting sequence: PYL1, truncated, DHFR fusion (Arabidopsis thaliana); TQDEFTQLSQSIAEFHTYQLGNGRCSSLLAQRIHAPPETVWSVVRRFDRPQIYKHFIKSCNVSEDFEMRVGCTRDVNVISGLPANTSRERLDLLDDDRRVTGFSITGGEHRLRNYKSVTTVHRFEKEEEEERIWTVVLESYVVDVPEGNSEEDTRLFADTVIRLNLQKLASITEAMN
Change	relative binding score [%]
Q19Y	101
E14Y	79.8
S150Q	88.4
Y18F	104
P50N	1.28
G21H	93.8
R24G	92
E131N	104

Sample 2
Target: Histone acetyltransferase KAT6A, winged helix 1, GST fusion (KAT6A, Homo sapiens, UniProt Q92794, residues 1-85)
Technique: protein binding microarray
Form: double-stranded DNA, one strand shown
Medium: in vitro
Tested at: not given
Notes: 8-mer, flanks averaged, mean of 2 arrays, mostly near background
Baseline: not given
Reading: higher = stronger binding
Construct (chain): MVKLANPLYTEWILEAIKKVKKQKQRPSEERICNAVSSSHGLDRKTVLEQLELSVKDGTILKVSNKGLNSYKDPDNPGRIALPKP
Strand	E-score
AATTGTAG	-0.151
AGCGAGCG	0.192
GCTTGTCC	-0.00298
AAGAACTT	-0.101
ATGGTCGA	-0.133
AAATTAAG	-0.142
ACAAGCTG	-0.171
CAACATGG	-0.168
ACGTGAAA	-0.145
GCAACCGA	-0.0916
GGGACGCA	0.13
GTGGACGA	-0.054
AATCATGT	-0.214
CGCGTAAA	0.272
AGAGAGGA	-0.157
GGTAAGGA	-0.0376
CTGTTCCA	-0.259

Sample 3
Target: RING finger protein unkempt homolog, zinc fingers 1-6, GST-SBP tag (UNK, Homo sapiens, UniProt Q9C0B0, residues 30-357)
Chain of UniProt Q9C0B0 (30-357, looked up): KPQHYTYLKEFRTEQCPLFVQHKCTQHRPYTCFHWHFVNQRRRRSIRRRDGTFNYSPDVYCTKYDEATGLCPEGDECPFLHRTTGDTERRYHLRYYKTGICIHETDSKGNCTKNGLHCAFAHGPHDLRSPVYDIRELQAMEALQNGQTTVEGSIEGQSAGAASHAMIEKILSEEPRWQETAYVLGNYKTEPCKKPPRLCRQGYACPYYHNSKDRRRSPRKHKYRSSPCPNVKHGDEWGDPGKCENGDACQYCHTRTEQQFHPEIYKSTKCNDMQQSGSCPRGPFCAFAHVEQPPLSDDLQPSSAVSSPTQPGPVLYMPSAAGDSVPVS
Technique: RNA Bind-n-Seq
Form: RNA
Medium: in vitro
Tested at: not given
Notes: RNA with constant flanks, human and mouse sites, ends assumed
Baseline: input RNA pool
Reading: higher = stronger binding
Strand	bound/input enrichment
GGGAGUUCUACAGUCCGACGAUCGAUCCUGAAUUUGCUGAAGAUCCAAGAAUGAUUAAAGUUGAUCUUAUCACUCUUUCUUACACUUUUUUUGAAGCAAAGGAAGGGCACAAGUUGCCAGUUCCAGGAUAUAAUUGAAGUCAGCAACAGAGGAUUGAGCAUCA	0.114 ratio
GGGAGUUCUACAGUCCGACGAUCAUUACAGACAUUAUCAGUGGGCUUGGCAGUAACAAAUGGAUCCAGCAGAAUCUCCAGUGCCUGGUGCUGAAUUCAUUAACUCUCUCCCUCGAGGAUCCUUACGAGCGCUGCUUCAGCCGGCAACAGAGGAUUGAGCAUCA	0.207 ratio
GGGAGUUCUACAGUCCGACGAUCUCUGUCACUCCUCUUAUCUGAGAAGUGACCUUUUAUUUUUAAGAUGACUACAGACCUAUUUUUAGAUAUGUUUUCAGUACAAUUUUGAACAGCAACUUUUUAAUUAAACAUCUUCCAGUGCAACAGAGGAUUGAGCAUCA	1.87 ratio
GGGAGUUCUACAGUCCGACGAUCGUCCAGAAGCGCUUUGGCUUCCCUGAAGGCAGCGUAGAGCUUUAUGCAGAGAAAGUGGCCACAAGAGGUCUGUGUGCCAUUGCCCAGGCAGAGUCUCUACGCUACAAACUCCUUGGAGGGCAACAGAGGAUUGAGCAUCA	0.118 ratio
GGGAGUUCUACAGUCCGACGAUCAGGAGUGUACGGCUAGUCAGAGACAAAGACACAGAUAAAUUUAAAGGAUUCUGCUAUGUAGAAUUCGAUGAAGUGGAUUCCCUUAAGGAAGCCUUGACAUACGAUGGUGCACUGUUGGGCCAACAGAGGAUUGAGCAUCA	0.311 ratio
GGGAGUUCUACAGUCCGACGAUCCUGAGAAAUAACCUCCGGAGCAUAGAGUGGGAUCUAGAGGACCUUGAUGAAACCAUCAGCAUAGUUGAAGCAAAUCCUAGAAAAUUUAACCUUGAUGCAACUGAAUUGAGUAUAAGAAAACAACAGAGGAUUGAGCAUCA	6.71 ratio
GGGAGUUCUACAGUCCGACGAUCCAAUUAUCUCAUGAUGUACGUCAGGCCUUUCCAGUUAUUCCAAACAAUACAAAGUGACAAUAUAGUUGGCUUCUAACUAUAGUACAAAUUUGAUUACAGUUAAUAUACUUAAGAUAUUACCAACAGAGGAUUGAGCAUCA	0.57 ratio
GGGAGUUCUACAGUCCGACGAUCCCCUCCCCGCUCCCCGCGUCCGCCGCGUCCGCCCCGGCACCUCUCCACCCGCCGCUCGCCGCGCUCCGGGCUGCCCUCGUCCGUGCGCGCCGUGGCCGGCCGAGCGGGCGGCGCGUUGAUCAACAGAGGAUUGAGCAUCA	1.32 ratio
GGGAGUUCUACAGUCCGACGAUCAGUUGAUAGUUUCACUCCCAAGCAAUGAAUUGCUUCUGUGUGUUUCCCUGUAGGACUCAAUAGUAAAUGCUGUCUGUCUUACACAUUUAUAAGGACCCUGCAAGACGACGACAAAGGCCUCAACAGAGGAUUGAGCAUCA	0.59 ratio

Sample 4
Target: Prothrombin, mature alpha-thrombin (F2, Homo sapiens, UniProt P00734)
Technique: aptamer microarray, sandwich
Form: DNA with 2'F-ANA
Medium: in vitro
Tested at: 200 nM
Notes: whole 15-mer aptamer, many near background
Together with: Cy3 exosite-II aptamer, 400 nM
Reading: higher = stronger binding
Strand: GGTTGGTGTGGTTGG
Modification	mean fluorescence intensity [a.u.]
2'F-ANA at 1 2 8 11 13 14	53
2'F-ANA at 1 3 4 5 7 8 10 12 13	50.3
2'F-ANA at 1 2 3 4 5 7 11 14 15	67.9
2'F-ANA at 1 3 4 6 8 10 11 13 15	56.6
2'F-ANA at 1 2 5 6 13 15	50.8
2'F-ANA at 3 4 5 6 8 10 11 13 14	49.3
2'F-ANA at 2 4 6 8 11 12 14 15	181
2'F-ANA at 2 3 4 8 11 12 14 15	297
2'F-ANA at 2 3 6 7 8 10 12 13 14	271
2'F-ANA at 1 2 5 7 8 9 10 13	170
2'F-ANA at 2 4 8 9 11 12 15	412
2'F-ANA at 2 7 8 12 15	758
2'F-ANA at 1 3 15	374
2'F-ANA at 1 4 6 7 9 10 13	48.2
2'F-ANA at 3 4 5 7 8 12 14	70.6

Sample 5
Target: Ras GTPase-activating protein-binding protein 1, full length (G3BP1, Homo sapiens, UniProt Q13283)
Chain of UniProt Q13283 (whole entry, looked up): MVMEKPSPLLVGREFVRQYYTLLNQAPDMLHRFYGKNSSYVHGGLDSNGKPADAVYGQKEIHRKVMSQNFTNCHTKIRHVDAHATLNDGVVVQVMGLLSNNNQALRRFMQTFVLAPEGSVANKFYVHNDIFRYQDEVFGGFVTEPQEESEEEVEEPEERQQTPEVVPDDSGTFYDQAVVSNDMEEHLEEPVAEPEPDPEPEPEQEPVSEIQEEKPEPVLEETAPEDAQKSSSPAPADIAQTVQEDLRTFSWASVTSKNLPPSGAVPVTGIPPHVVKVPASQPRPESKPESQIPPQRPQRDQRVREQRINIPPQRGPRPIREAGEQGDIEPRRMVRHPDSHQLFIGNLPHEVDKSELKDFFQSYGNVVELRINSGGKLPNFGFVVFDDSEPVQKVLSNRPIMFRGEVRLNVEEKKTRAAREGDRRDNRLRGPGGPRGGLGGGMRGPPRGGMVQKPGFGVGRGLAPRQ
Technique: RNA Bind-n-Seq
Form: RNA
Medium: in vitro
Tested at: 200 nM
Notes: whole 134-nt RNA, ends assumed
Together with: 150 mM KCl
Baseline: input library
Reading: higher = stronger binding
Strand	log2 enrichment
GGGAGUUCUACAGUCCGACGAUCUCCUGUGCUACACAUCGUAUGUACCGAAUCGGGUUUUUUGGGUUUUUUGGGUUUUUUGGGAAAGUAUUAUGUUACGCCGUUCGGAUCUGCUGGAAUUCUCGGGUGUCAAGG	-0.264
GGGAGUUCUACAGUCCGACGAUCACCAUGCAGGUGGGCAUCUUUGGGAAGUGGGGCAAGGGGGGAAUAGGGAGGGGGGUAACACUUUGGGAACAGGUGGUCCCAGGUCGUUUCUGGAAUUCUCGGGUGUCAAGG	1.02
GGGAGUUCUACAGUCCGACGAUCUCAAGUCCUGUGCUACACAUCGUAUGUACCGAAUCGGAAAGGAAAGGGAAAGGGGAAAGUAUUAUGUUACGCCGUUCGGAUCUGCACUUCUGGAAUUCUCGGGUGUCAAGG	-0.714
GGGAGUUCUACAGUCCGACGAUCAGUCCUGUGCUACACAUCGUAUGUACCGAAUCGGAAAAGGGAAAAGGGGAAAAGGGGAAAGUAUUAUGUUACGCCGUUCGGAUCUGCACUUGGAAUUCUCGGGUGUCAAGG	-0.244
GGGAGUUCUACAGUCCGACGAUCUUCCUCAAGUCCUGUGCUACACAUCGUAUGUACCGAAUCGGAGGAGGGAGGAAAGUAUUAUGUUACGCCGUUCGGAUCUGCACUUCCAGCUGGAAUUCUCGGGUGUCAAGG	-0.639
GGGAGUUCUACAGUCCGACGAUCUGGGAGGUGGAUUUUGUUUAUUUUUUUAGCUCAUUUCCAGGGGUGGGAAUUGUUUUUUAAUAUGUGUCAUGAAUAAAGUUGUUUUUGAAAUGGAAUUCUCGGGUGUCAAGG	0.204
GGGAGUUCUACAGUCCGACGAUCUGUUCACAUUUUAAGGAUGACAAGUCCACUAUAUGUAACACGUAAGAAUGCUAUCCUGGCAGUAGACACAGGGCCAGAAUAAACUGGCAAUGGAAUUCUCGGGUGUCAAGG	-0.987
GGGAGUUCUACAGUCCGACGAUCCCUGUGCUACACAUCGUAUGUACCGAAUCGGGUUUUUUGGGGUUUUUUGGGGUUUUUUGGGAAAGUAUUAUGUUACGCCGUUCGGAUCUGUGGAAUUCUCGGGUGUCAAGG	-0.445
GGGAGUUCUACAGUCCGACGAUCUCAAGUCCUGUGCUACACAUCGUAUGUACCGAAUCGGUUUGGAAAAAGGAAAGGAAAGUAUUAUGUUACGCCGUUCGGAUCUGCACUUCCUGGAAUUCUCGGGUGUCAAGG	-0.725

Sample 6
Target: CCNB3, cyclin fold, Cln2 fusion (human)
Technique: yeast growth competition, sequencing
Medium: yeast
Notes: weak parent motif
Baseline: not given
Reading: higher = stronger binding
Starting sequence: PKMYT1 docking peptide (human); SFEPRNLLSLFED; partner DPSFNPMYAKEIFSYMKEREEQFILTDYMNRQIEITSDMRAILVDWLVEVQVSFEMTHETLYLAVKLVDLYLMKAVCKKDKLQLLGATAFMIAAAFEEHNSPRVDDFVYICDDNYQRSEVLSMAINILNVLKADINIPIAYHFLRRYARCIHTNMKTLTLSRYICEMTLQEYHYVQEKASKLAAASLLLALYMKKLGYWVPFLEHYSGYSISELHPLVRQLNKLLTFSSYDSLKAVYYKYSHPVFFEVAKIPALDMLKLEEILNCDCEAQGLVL
Change	normalised enrichment score
SFESRNLLSLFED [P4S]	0.243
SFEPRNLLSLFEA [D13A]	0.857
SFEYRNLLSLFED [P4Y]	0.318
SFEPRNLLSGFED [L10G]	0.652
SFEPRNLLSLFET [D13T]	0.371
SCEPRNLLSLFED [F2C]	0.586
DFEPRNLLSLFED [S1D]	0.434
SFEPRNLTSLFED [L8T]	0.571
SFEPRALLSLFED [N6A]	0.717
SFSPRNLLSLFED [E3S]	0.381

Sample 7
Target: Hepatocyte nuclear factor 3-beta, forkhead domain (FOXA2, Homo sapiens, UniProt Q9Y261, residues 142-269)
Technique: protein-binding microarray
Form: double-stranded DNA, one strand shown
Medium: in vitro
Tested at: not given
Notes: k-mer, scored over probes, only values ≥0.25
Reading: higher = stronger binding
Residues (chain): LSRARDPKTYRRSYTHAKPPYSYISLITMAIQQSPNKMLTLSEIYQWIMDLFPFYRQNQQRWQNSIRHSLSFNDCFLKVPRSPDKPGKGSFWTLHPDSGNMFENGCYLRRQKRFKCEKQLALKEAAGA
Strand	E-score
AAGAACAT	0.254
AATACCCA	0.266
AAGTTTAT	0.263
ACACTCAT	0.262
CGTTACTA	0.253
CAACGATA	0.291
CTGTTTGC	0.305
CTAACATA	0.31
ACATGATA	0.354
ACATAGAT	0.276
GTATGACA	0.299
CATCATAC	0.328
ATACATGG	0.335
CAATTACA	0.284
ACTATGAA	0.281
ATCAATCA	0.276

Excerpt of the above (sample 2):
Strand	E-score
GCTTGTCC	-0.00298
AAGAACTT	-0.101
ATGGTCGA	-0.133
AAATTAAG	-0.142
ACAAGCTG	-0.171
CAACATGG	-0.168
ACGTGAAA	-0.145
GCAACCGA	-0.0916
